Assay results collected from several papers.
Every numbered part comes from another study and shows a few of its results, in no order. Positions count from the first letter of the parent shown.
Sequence of UniProt Q13283 (whole entry, looked up): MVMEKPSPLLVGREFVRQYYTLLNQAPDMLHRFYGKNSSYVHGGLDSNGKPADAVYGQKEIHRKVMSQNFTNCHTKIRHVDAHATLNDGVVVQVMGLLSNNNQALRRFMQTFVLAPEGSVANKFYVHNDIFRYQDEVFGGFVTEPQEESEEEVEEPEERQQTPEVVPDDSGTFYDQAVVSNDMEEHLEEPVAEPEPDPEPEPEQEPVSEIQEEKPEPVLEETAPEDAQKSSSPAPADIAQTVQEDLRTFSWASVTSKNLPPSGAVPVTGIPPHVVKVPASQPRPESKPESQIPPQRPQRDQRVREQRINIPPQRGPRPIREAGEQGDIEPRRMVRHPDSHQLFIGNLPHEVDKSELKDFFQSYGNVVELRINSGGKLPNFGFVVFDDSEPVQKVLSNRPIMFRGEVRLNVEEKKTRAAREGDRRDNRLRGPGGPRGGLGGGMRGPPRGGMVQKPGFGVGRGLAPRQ

Series 1
Target: Histone acetyltransferase KAT6A, winged helix 2, GST fusion (KAT6A, Homo sapiens, UniProt Q92794, residues 85-181)
Technique: protein binding microarray
Molecule type: double-stranded DNA, one strand shown
Matrix: in vitro
Tested at: not given
Setting: 8-mer, flanks averaged, mean of 2 arrays, mostly near background
Baseline: not given
Reading: higher = stronger binding
Target sequence (chain): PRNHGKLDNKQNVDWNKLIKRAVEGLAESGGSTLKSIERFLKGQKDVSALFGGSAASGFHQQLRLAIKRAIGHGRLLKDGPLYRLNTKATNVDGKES
Oligonucleotide | E-score
CAAGATGA | -0.0872
CGCTATTA | 0.0215
ATCCAGAT | 0.00709
AGTTGGAA | 0.0799
GTGGTGGA | -0.119
GAATCTAA | 0.0712
CCCTAACA | 0.124
AGTATCAT | 0.0206
CGCGTTCC | 0.159
ACACGCGT | -0.0286
CACGGAAG | -0.021
GCCCCAGA | 0.0749
CTTCCAGA | -0.0436
CGCGCATA | -0.0389
CACGATCC | 0.112
GAGAATTA | 0.0138
CACCCGGA | 0.192
CAAGTGGG | 0.0472
GACTTCGA | -0.128

Series 2
Target: RNA binding protein fox-1 homolog 2, RRM domain, GST-SBP tag (RBFOX2, Homo sapiens, UniProt O43251-10, residues 100-194)
Technique: RNA Bind-n-Seq
Molecule type: RNA
Matrix: in vitro
Tested at: 365 nM
Setting: natural RNA segment, single round, ends assumed
Baseline: no-protein control
Reading: higher = stronger binding
Target sequence (chain): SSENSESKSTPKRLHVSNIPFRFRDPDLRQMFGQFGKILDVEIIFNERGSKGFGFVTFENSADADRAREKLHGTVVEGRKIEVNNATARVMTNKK
Oligonucleotide | RBNS enrichment (R)
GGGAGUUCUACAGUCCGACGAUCUUCAUGCUUUAUCAAUAGCCCAGGAUAUAUUUUAUUUUUAGAAUUUUGUGAAACAGACUUGUAUAUUCUAUUUUACAACUACAAAUGCCUCCAAAGUAUUGUACAAAUAAUGGAAUUCUCGGGUGCCAA | 0.669
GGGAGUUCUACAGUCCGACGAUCUCACUGGGAGAUUUUGUAUAUAUUCUUUUAUUAUUAGAUUGAGUUGGGUGUGGGGAAAAAUUUUUUUCUGAAGGCUCAAAAGUGGUUUCCUAAAAGUGAGCCACUAUCAGUGGAAUUCUCGGGUGCCAA | 0.509
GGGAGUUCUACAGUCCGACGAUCGCAACAGCAGCAGCAGCAGCAGCAGCAGCAGCAGAGACCUCUCCACUUUCCCUUAGCCCCUCUGCUGGGUAGAGAGGCACUUUCAGGGACUUCCCUCCAGCUGCCUCUUCUGGAAUUCUCGGGUGCCAA | 0.428
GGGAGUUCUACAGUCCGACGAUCCUGGUCACAGGACUCUGCCUCCUCUUCAACUGACCAGCCUCCAUGCUGCCUCCAGAAUGGUCUUUCUAAUGUGUGAAUCAGAGCACAGCAGCCCCUGCACAAAGCCCUUCUGGAAUUCUCGGGUGCCAA | 0.189
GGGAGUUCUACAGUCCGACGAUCUGACCACACAGCCUCUGCCUCACGCCUGCUUGGUACACUAAGGGCCAGCCCUGCAGGGGCUGUACCCAGCUUGGCCUUAGCCCAUCUAAGUGCUGUCAACUGGUCUCCCAUGGAAUUCUCGGGUGCCAA | 0.435
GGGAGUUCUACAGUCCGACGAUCGCUGGAACUUUGUGGUCCUUGCCGAGUUUUGUAGGGGUCACUGUCACAUGCUUGUGCCCUGGAAGCCCCAAGGCUCUUCCUCCAGCUGGCUCCCUUGUCUCCAGGGCUUUUGGAAUUCUCGGGUGCCAA | 0.438
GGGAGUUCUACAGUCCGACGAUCGUCCAGGGAGGAGUCAGCGGGGAGUCAGCAGGUUCUCUCUCCUCCCUGGGAACUGGGGACCAACCCACCCCGGCAGCACAGUGCCUUUUUUUCUCCUGCUCUGAGUCAGGUGGAAUUCUCGGGUGCCAA | 1.42
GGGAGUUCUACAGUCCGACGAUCGUAGGGGCCGAGGAGGGCAGAGGGUAUAGGAAGUGAGAACGAGGCCUGUGUCGCAGCAGCCCAGCAUCAAGCAUGUCACACACUGCCCUGCCACAGCCACCUCCCUCCCUUGGAAUUCUCGGGUGCCAA | 4.69
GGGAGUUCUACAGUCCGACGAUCUUCUAUUAUGAAUCAUGUGAAAGCAUGACAUUCGUUCACAAUAGCACUAUUUUAAAUAAAUUAUAAGCUUUAAGGUACGAAGUAUUUAAUAGAUCUAAUCAAAUAUGUUGUGGAAUUCUCGGGUGCCAA | 0.331
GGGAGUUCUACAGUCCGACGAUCUCGUUUGGGCGUAACAACUAAGUCUCUUUCCAGAUCAGUAUAAUAAAGGAGUGAUGUGCAAUACUUUACUGUUUGUCUUGUGUCUGUGGUCUGAGAAAACCACAGCAUUCUGGAAUUCUCGGGUGCCAA | 8.11
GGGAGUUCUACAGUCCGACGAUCUAUGAAGAAAAACACAAAGUGUAUAAAUCUUGAGUAUAUAUUUACAUGUCUUUUUAAAAAGGGUCGUUACUAGAGAUUUACCCAUGGGGGAGACGCCCAGGGUAGCAUCCUGGAAUUCUCGGGUGCCAA | 0.408
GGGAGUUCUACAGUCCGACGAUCUACUUCCAACUUGUUCUGAUGCCCUCUGUUUCCCAGGCCAGGCUUGUCUGUGGUGACCUGGGCAUGGGUGACAGGGCUCUCAUUUGCCCCUUGGUCUCUUUAUGCUGCUGUGGAAUUCUCGGGUGCCAA | 0.925

Series 3
Target: CCNE2, cyclin fold, Cln2 fusion (human)
Technique: yeast growth competition, sequencing
Matrix: yeast
Setting: weak parent motif
Baseline: not given
Reading: higher = stronger binding
Starting sequence: PKN2 docking peptide (human); VSAVQKLDFSDTM
Variant | normalised enrichment score
L7D | -0.692
S10W | 0.103
D8V | 0.506
D8I | 0.924
V4E | 0.0103
V1K | 0.348
V4T | -0.38
F9Q | 0.00845
T12C | 0.821
V1Y | 0.855
S10I | 0.298
M13K | 0.51
A3L | 0.702
A3M | 0.177
V4H | -0.262
K6P | -0.453
V1D | -0.418
S10D | -0.1

Series 4
Target: Centromere-binding protein 1, full length, His-tagged (CBF1, Saccharomyces cerevisiae, UniProt P17106, residues 1-351)
Sequence of UniProt P17106 (whole entry, looked up): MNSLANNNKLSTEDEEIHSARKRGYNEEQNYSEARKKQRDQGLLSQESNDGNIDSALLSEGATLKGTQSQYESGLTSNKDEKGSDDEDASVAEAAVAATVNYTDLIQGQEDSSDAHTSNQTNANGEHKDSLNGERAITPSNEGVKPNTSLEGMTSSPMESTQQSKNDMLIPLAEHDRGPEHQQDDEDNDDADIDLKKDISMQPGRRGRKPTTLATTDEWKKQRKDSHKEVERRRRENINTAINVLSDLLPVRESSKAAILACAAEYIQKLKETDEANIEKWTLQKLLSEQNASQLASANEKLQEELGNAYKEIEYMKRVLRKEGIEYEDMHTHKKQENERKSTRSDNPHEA
Technique: competition protein-binding microarray
Molecule type: double-stranded DNA, one strand shown
Matrix: in vitro
Tested at: 2 µM
Setting: whole 60-bp probe, lowest competitor level
With: Pho4 competitor, 0.05 µM
Reading: higher = stronger binding
Oligonucleotide | fluorescence intensity [a.u.]
CTTCTGTAAATTTTTCACGTGGGTTGACGCGCCCCGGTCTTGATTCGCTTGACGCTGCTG | 694
TCAAAATTGAACGGCCACGTTGAGGGACCGTTGTCAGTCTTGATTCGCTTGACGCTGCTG | 75.5
CTAACGAAGGTTTTTCACGTGAGATACAAGCCAAGTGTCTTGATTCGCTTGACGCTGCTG | 1040
AACGGTGCCGGCCGTCACGCTAACGTTTCCACCAAGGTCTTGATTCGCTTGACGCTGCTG | 78
TTTAGTGCGAACGCCTACGTGTCCTGTTAACTTATCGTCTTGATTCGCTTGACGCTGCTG | 73.5
TGGTTACAAGATATACGCGTGACTCGTTTTTTATTTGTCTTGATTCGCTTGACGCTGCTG | 652
CATACCCAACCTTGCGTGGTGGGTGAAGATATTTGTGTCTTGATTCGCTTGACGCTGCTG | 62.3
CGGGGTTAAGTTTGAGTTGTGGGTGGCTTGCAGCAGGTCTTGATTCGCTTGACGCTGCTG | 69.2
CTTTCCCGATCTTGCTACGTGGGTGTAGCACATTTGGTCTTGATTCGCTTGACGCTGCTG | 77.7
AACGAACCCGCAAGACGCGTGCAAAGCTGGTTAGATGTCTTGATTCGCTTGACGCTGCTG | 67.7
CCGCTAAGCCCGAGAGCCGTGCGATCTATGTTTCTTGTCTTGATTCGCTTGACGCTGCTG | 60.9
CGGGGTTAAGTTTGACGCGTGGGTGGCTTGCAGCAGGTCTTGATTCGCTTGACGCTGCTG | 79.3
CGTCCTAGTGATTGCCCAGTGGGTGCCATGAGGAAGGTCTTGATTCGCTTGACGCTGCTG | 72.4
ATCCCTGTCGTTACGGTCGTGCCAGTTACACTGGGAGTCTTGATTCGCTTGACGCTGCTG | 74.5
GCGCAAAATGGCGTCACCGTGAAAAAGGAGGAGGATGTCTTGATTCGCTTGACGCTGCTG | 99.3
CGGGGTTAAGTTTGACTCGTGGGTGGCTTGCAGCAGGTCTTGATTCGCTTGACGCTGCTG | 83.6
AAGGCAACAAGCCGACACGTGGAGGAAAGCCAGGAGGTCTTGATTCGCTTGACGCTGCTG | 537
CCTGGAGAACCGGGAGGCGTGGGTAAGTTGCTTGAAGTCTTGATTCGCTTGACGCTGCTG | 69.7
CTTTCCCGATCTTGTCCTGTGGGTGTAGCACATTTGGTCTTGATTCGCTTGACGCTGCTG | 84.2
CATACCCAACCTTGTCACTCCACTTAAGATATTTGTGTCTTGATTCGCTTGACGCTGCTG | 67.2
CTAACGAAGGTTTGATTTGTGGGTGACAAGCCAAGTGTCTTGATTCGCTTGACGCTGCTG | 70.4
CTTTCCCGATCTTGCCACGTGTTTTTAGCACATTTGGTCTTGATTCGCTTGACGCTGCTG | 1200
CGGGGTTAAGTTTGTCACGGTACTTGCTTGCAGCAGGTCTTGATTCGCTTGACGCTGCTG | 192
CATACCCAACCTTGCCCGGTGGGTGAAGATATTTGTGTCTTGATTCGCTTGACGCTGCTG | 58.4
CATCATGAAAAGGTCCACGTTGCTGTCGCTGGACGCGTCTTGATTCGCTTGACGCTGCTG | 101

Other studies, line by line
Oligonucleotide | target | assay | system | setting | how to read | measurement | value
GGGAGUUCUACAGUCCGACGAUCUGGGAGGUGGAUUUUGUUUAUUUUCUUAGCUCAUUUCCAGGGGUGGGAAUUUUUUUUUAAUAUGUGUCAUGAAUAAAGUUGUUUUUGAAAUGGAAUUCUCGGGUGUCAAGG | Ras GTPase-activating protein-binding protein 1, RRM domain (G3BP1, Homo sapiens, UniProt Q13283) | RNA Bind-n-Seq | RNA, in vitro | 1 µM, whole 134-nt RNA, ends assumed, with: 150 mM KCl | baseline: input library, higher = stronger binding | log2 enrichment | 1.73

A few entries again (series 1):
Oligonucleotide | E-score
AGTTGGAA | 0.0799
GTGGTGGA | -0.119
GAATCTAA | 0.0712
CCCTAACA | 0.124
AGTATCAT | 0.0206
CGCGTTCC | 0.159
ACACGCGT | -0.0286
CACGGAAG | -0.021
GCCCCAGA | 0.0749
